Assay results collected from several papers.
Numbered parts are unrelated; each lists some results of a single study. Positions count from the first letter of the parent shown.

Block 1
Target: ABI1, truncated, D143A, DHFR fusion (Arabidopsis thaliana)
Method: DHFR PCA, deep sequencing
Medium: yeast
Setting: methotrexate growth selection, single substitutions
With: (+)-ABA 0.0091 µM
Relative to: wild-type fitted maximum
Reading: higher = stronger binding
Starting sequence: PYL1, truncated, DHFR fusion (Arabidopsis thaliana); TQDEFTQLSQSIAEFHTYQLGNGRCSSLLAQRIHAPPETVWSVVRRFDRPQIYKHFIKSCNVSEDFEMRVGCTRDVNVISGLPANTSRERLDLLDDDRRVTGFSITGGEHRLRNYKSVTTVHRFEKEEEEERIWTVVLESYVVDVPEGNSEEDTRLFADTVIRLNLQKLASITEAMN; partner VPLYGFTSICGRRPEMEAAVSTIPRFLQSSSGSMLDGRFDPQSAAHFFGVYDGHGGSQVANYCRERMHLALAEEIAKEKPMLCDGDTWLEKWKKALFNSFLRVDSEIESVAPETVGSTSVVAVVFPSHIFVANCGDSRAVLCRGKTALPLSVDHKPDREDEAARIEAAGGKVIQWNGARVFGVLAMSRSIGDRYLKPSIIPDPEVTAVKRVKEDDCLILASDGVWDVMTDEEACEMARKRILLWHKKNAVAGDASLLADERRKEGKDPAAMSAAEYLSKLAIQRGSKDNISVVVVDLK
Variant | relative binding score [%]
P146A | 26.5
K58Y | 1.84
F56R | 3.03
M176N | 3.81
D3C | 13.7
V145H | -4.18
Y18A | -0.00651
N149H | 29.8
D96Y | -1.38
P50V | 0.202
E127T | 42.2
C25I | 58.5
L93D | -7.96
T120G | -11.9
A30F | 17.2
L112Y | 4.66
R99S | -0.749
I133A | 43.2
F103E | -2.38

Block 2
Target: CCNB3, cyclin fold, Cln2 fusion (human)
Method: yeast growth competition, sequencing
Medium: yeast
Setting: weak parent motif
Relative to: not given
Reading: higher = stronger binding
Starting sequence: ANKRD17 docking peptide (human); PSVRRQLFVTVVK
Variant | normalised enrichment score
V9A | 0.344
L7A | 0.675
R5A L7A | 0.139
R5K | 0.268
P1A | 0.7
S2A | 0.598
R5K F8L | 0.824
V3A | 0.783
V11A | 1.06
K13A | 0.534

Block 3
Target: MAFF, bZIP domain (human)
Method: DHFR protein complementation
Medium: yeast
Setting: single substitutions, most at no-binding floor
Relative to: wild-type JUN-FOS pair
Reading: higher = stronger binding
Starting sequence: JUN, bZIP domain (human); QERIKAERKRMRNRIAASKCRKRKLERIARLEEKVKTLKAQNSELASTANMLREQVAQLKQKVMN; partner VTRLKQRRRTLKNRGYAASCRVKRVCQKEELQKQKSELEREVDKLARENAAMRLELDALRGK
Variant | binding fitness
N42G | -1.49 natural log
E32A | -1.19 natural log
E44L | -1.4 natural log
A57L | -1.5 natural log
T37M | -1.3 natural log
T37N | -1.42 natural log
N42H | -0.977 natural log
V35C | -1.07 natural log
V56F | -1.48 natural log
E44G | -1.5 natural log
N42C | -1.18 natural log
A40M | -1.36 natural log

Block 4
Target: PABPC1L2, full length, GST fusion (mouse, UniProt A0ABA7IW68)
Method: RNAcompete
Molecule type: RNA
Medium: in vitro
Concentration: 20 nM
Setting: 7-mer, probes averaged, single round
Relative to: mean of 7-mers
Reading: higher = stronger binding
Residues (chain): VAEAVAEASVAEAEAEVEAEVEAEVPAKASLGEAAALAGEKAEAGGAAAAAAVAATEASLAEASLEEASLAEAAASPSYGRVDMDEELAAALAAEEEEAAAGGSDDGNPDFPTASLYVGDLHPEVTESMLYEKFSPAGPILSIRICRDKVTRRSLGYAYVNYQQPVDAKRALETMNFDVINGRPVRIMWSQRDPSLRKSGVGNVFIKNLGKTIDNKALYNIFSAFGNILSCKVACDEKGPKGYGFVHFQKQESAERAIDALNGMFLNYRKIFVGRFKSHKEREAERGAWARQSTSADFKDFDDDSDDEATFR
Oligonucleotide | 7-mer Z-score
ACACUUG | -0.0971
AGGUAUA | 0.0714
UUGGAUU | -0.0935
GUAUGUU | -0.231
CGACAUG | -0.121
CAAACAA | 2.72
UCUACGC | -0.331
GGAUCAC | -0.108
CCGCCUA | -0.358
ACGUACU | -0.237
AUCAUCC | -0.271
GUUUCCG | -0.443
CGAUAUG | -0.0464
AGGAUAA | 0.36
GCGUUUG | -0.434
UAUUAAU | -0.304
GGGGCGU | 0.302
AACCGUU | -0.0772
UCUCCUA | -0.289

Block 5
Target: UBE2G2 UBC core domain (UniProt P60604)
Method: yeast two-hybrid
Medium: yeast
Setting: mostly zero background
Relative to: not given
Reading: higher = stronger interaction
B1: TRIM10 RING domain (UniProt Q9UDY6); chain SVTSLADEVNCPICQGTLREPVTIDCGHNFCRACLTRYCEIPGPDLEESPTCPLCKEPFRPGSFRP
B2: TRIM35 RING domain (UniProt Q9UPQ4); chain PSRSFKEELLCAVCYDPFRDAVTLRCGHNFCRGCVSRCWEVQVSPTCPVCKDRASPADLRT
B3: RFPL2 RING domain (UniProt O75678); chain MAALFQEASSCPVCSDYLEKPMSLECGCAVCLKCINSLQKEPHGEDLLCCCSSMVSRKNKIRR
B4: RNF43 RING domain (UniProt Q68DV7); chain SGSSCSSAPVCAICLEEFSEGQELRVISCLHEFHRNCVDPWLHQHRTCPLCMFNITEGDSFS
B5: RNF149 RING domain (UniProt Q8NC42); chain EKGIDVDAENCAVCIENFKVKDIIRILPCKHIFHRICIDPWLLDHRTCPMCKLDVIKALGYW
B6: TRIM55 RING domain (UniProt Q9BYV6); chain TMDNLEKQLICPICLEMFTKPVVILPCQHNLCRKCASDIFQASNPYLPTRGGTTMASGGRFRCPSCRHEVVLDRHG
B7: ANKIB1 RING domain (UniProt Q9P2G1); chain LSPGDLDTSLCDICMCSISVFEDPVDMPCGHDFCRGCWESFLNLKIQEGEAHNIFCPAYDCFQLVPVDIIE
B8: TRIM52 RING domain (UniProt Q96A61); chain PMQTLQEEAVCAICLDYFKDPVSISCGHNFCRGCVTQLWSKEDEEDQNEEEDEWEEEEDEEAV
B9: UBE4A RING domain (UniProt Q14139); chain LQQQEEETYADACDEFLDPIMSTLMCDPVVLPSSRVTVDRSTIARHLLSDQTDPFNRSPLTMDQIRPNTELKEKIQRWLAERKQQKEQLE
Construct (chain): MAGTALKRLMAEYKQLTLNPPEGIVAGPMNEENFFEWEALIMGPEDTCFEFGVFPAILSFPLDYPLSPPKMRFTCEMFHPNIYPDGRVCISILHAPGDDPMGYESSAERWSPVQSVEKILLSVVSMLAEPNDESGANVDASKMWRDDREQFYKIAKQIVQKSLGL
Sequence | lacZ reporter activity
B1 (TRIM10 RING domain) | 0
B2 (TRIM35 RING domain) | 0
B3 (RFPL2 RING domain) | 0
B4 (RNF43 RING domain) | 1330
B5 (RNF149 RING domain) | 0
B6 (TRIM55 RING domain) | 0
B7 (ANKIB1 RING domain) | 0
B8 (TRIM52 RING domain) | 0
B9 (UBE4A RING domain) | 6550
LKQVSIRENCCSLCCDEVADTQLKPCGHSDLCMDCALQLETCPLCRKEIVSRIRQI (RSPRY1 RING domain (UniProt Q96DX4)) | 14400

Block 6
Target: RNA binding protein fox-1 homolog 2, RRM domain, GST-SBP tag (RBFOX2, Homo sapiens, UniProt O43251-10, residues 100-194)
Method: RNA Bind-n-Seq
Molecule type: RNA
Medium: in vitro
Concentration: 365 nM
Setting: natural RNA segment, single round, ends assumed
Relative to: no-protein control
Reading: higher = stronger binding
Shared flanks, not repeated: GGGAGUUCUACAGUCCGACGAUC … UGGAAUUCUCGGGUGCCAA
Construct (chain): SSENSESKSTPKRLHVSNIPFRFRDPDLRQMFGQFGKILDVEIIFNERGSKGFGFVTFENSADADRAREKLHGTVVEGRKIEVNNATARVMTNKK
Oligonucleotide | RBNS enrichment (R)
ACAAUCCAUGGGGGCGCUUAGUGGAAGGAUUAAUAUUAUGUUUAAGGGAAUAGUUUAUAUGGACCUUUUUGUCAACAAUAAGCUAUUGUAAAGAUAUUUAAUGUUCUGUU | 0.323
CCUGCCAGCACACCGAUGCACACACCGGAAGUGGCGAGCCCAAGCCCUGGGGACAGGUGUAGGGAGAAAAGCAGCCCCAGGCCUCAGACUCGCUUCCCAUCCUGGCAUAG | 1.18
UCCUUUCUUCUCCCUAUCAGAGCUGACCCUACAAACACCUGUCCCCUGAGUUGUGUUGAAGUCCCCUGGACAAUGAGCAGGGGUGGCAGAGGACAGCAGCAGCCACUGCC | 0.997
CAGUACUUGAAGUUCGUACUAGAGAAUUCCUUUGUAGUUUUGAAGCUUUUAUCCAAACUACUUUGAAAUAGGUGGCUUUCUUGUCAGUGGUUUGCCCCCCAGGUGUAAUU | 0.745
CCCCUCCCAGUCCCUGUUGGCUUUCGGUAGCUCUCGCAUGCAGUUCUAUUAACAGCCGUCUAGAAGCGAUGCUUUAGUGGCCUAACCCAGGGUCAAAUACAGCUCUUUCU | 12.2
UUUUUUUUUCUGAUUCAAAUUCUACAGUAGAAUGGAGGGCAGAAUUACUGGGACACAAUCACCACUCAGCUAGAAUGGAGAUUCAAGGAAAUGGAAGGUACUAGAAACAG | 0.466
GAUGCUUCACCUGGCAUCUAGCCACUGCCUCCCACUUCUAGCAGAACUGGGUCAGCAGCCCUGUUCUUGCUUCCUCUCUCUUAAGCUAGGCCAGGCUGGCUCCUGGCUGU | 0.382
UUGUUCUUUAAUAUGCUGUCCAUGGCUGAGUUUAUUAGUACAUGGGCUUAGUGACCACAAAAUAUUUUAUUAAGAAACUGUUUCAAAAAUAAAUUUGCACUGUUCAUUUU | 2.03
AAAAUUAACUGGGUGUGGUGGCGCGUGCCUGUAAUCCCAGCUACUCGGGAAGCUGAGGCAGGUGAAUUGUUUGAACCUGGGAGGUGGAGGUUGCAGUGAGCAGAGAUCAC | 0.872
GUAUGCAUAGAGCAUCUCCCCUGCCGGGUGUGUGAAUAACAUUGAAGCCCUCUGAGAAAGCAGGGCAAAUAGGGUGUAAGGGGCUUGGUUUUUCUGUUAGCUUGGACCAC | 1.06
UGCUAGAGUUGUGGUGGCAGGGGCCCUGGCCCCGUCUCAGGAUUGCGCUCGCUUUCAUGGGACCAGACGUGAUGCUGGAAGGUGGGCGUCGUCACGGUUAAAGAGAAAUG | 0.487
CAAAAGGAAAAAAAAAAUCCCAAUCCUCAAAAGGUCAAGGCCCCGUCCCCUGUUGUCGGUGAUUUGUUUGUCUUUCUGAUAGGUUGAAAAUUGUGUAAUAAACUUGAUGA | 0.661
